Assay results pooled from the literature.
Protocols differ between the studies behind these lines. Values joined by “and” are separate records of one study, mostly repeats; a detail may differ. ± marks the error that the study gave. Converted amounts (≈) assume the structure as drawn.

SMILES	assay	system	setting	scale	quantity	result
CCOc1nc2cccc(C(=O)OC(C)OC(=O)OC3CCCCC3)c2n1Cc1ccc(-c2ccccc2-c2nnn[nH]2)cc1 (stereo not drawn)	shake-flask	Captex 355	37 °C	–	thermodynamic solubility	0.71 ± 0.02 mg/g
O=C(O)[C@H](c1ccccc1Cl)N1CCc2sccc2C1	HPLC-MS/MS	feline citrate plasma	6 h, 4 °C, storage stability	–	deviation from nominal	8%
O=c1c(O)c(-c2ccc(O)c(O)c2)oc2cc(O)cc(O)c12	mass spectrometry	Caco-2	40 µM, 6 h	–	Papp A→B	92.2 nm/s
CS(=O)(=O)OC[C@H](O)[C@@H](O)COS(C)(=O)=O	–	Wistar rat, female, red blood cell lysate	intraperitoneal, 500 mg/kg, 4 h	–	concentration	74 µM
CC(C)NCC(O)COc1cccc2ccccc12 (stereo not drawn)	–	male Hartley guinea pig, anaesthetized	intravenous infusion, 3 mg/kg, 10 min infusion	reference: baseline	QTc change	1.1 ± 1.4%
CCCS(=O)(=O)Nc1ccc(F)c(C(=O)c2c[nH]c3ncc(-c4ccc(Cl)cc4)cc23)c1F	–	human patients, urine and feces	oral, 960 mg, 18 days, steady state, radiolabelled	reference: dose	radioactivity recovery	95% and ~95%
C[C@]12CC[C@@H]3c4ccc(O)cc4CC[C@H]3[C@@H]1C[C@@H](O)[C@@H]2O	GC-MS	breast cancer women on NSAI, serum	vaginal, 0.03 mg, 0.5 h, day 0	–	mean serum concentration	3.83 pg/mL
COc1cc(F)c(F)c(Nc2ccc(I)cc2F)c1NS(=O)(=O)C1(C[C@H](O)CO)CC1	–	human patients, plasma	oral, 50 mg twice daily, cycle 1 day 15, with: copanlisib 0.4 mg/kg intravenous weekly	–	AUC(0-8 h)	6.17 µg·h/mL
CC(C)(C)NC(=O)[C@@H]1C[C@@H]2CCCC[C@@H]2CN1C[C@@H](O)[C@H](Cc1ccccc1)NC(=O)[C@H](CC(N)=O)NC(=O)c1ccc2ccccc2n1	shake-flask	PEG400	37 °C	–	thermodynamic solubility	≥ 300 mg/g
O=C(CCCCCCC(=O)Nc1ccccc1)NO	–	human, serum	oral, 600 mg twice daily	–	AUC(0-8 h)	14.3 µM·h
OCCN(CCO)c1nc(N2CCCCC2)c2nc(N(CCO)CCO)nc(N3CCCCC3)c2n1	shake-flask	soybean oil	37 °C	–	thermodynamic solubility	0.07 ± 0.01 mg/g
CN[C@H](CC(C)C)C(=O)N[C@H]1C(=O)N[C@@H](CC(N)=O)C(=O)N[C@H]2C(=O)N[C@H]3C(=O)N[C@H](C(=O)N[C@H](C(=O)O)c4cc(O)cc(O)c4-c4cc3ccc4O)[C@H](O)c3ccc(c(Cl)c3)Oc3cc2cc(c3O[C@@H]2O[C@H](CO)[C@@H](O)[C@H](O)[C@H]2O[C@H]2C[C@](C)(N)[C@H](O)[C@H](C)O2)Oc2ccc(cc2Cl)[C@H]1O	–	pig, vertebral cancellous bone	intravenous infusion, 1000 mg, infusion 100 min, with: MIC 8 µg/mL	–	time above MIC	81 min
CCCSc1ccc2nc(NC(=O)OC)[nH]c2c1	–	sodium acetate buffer	24 h, pH 4.0, room temperature	–	thermodynamic solubility	0.91 ± 0.1 µg/mL (≈ 3.43 µM)
CCCC[C@H](NC(C)=O)C(=O)N[C@H]1CCC(=O)NC[C@@H](C(=O)N[C@@H](Cc2c[nH]c3ccccc23)C(N)=O)NC(=O)[C@H](CCCNC(=N)N)NC(=O)[C@@H](Cc2ccccc2)NC(=O)[C@H](Cc2c[nH]cn2)NC1=O	–	healthy human, both sexes, plasma	subcutaneous, 1.0 mg once daily, day 1, arithmetic mean	–	Vd/F	120 L
O=C1N=C(N2CCOCC2)CN1c1ccc(Cl)cc1	–	beagle dog, both sexes	oral, 30 mg/kg, day 5, tablets, after 4 days twice daily	–	apparent volume of distribution (Vz/F)	1.06 L/kg
CCCCCCCCC/C=C/C(=O)CCc1ccc(O)c(OC)c1	–	rat, small intestine site 4 contents	oral, dose not given, 2 h, no β-glucuronidase treatment	reference: ingested amount	recovery	0.19%
Cn1c(-c2ccc(C(N)=O)cc2F)nnc1C(C)(C)Oc1c(F)cc(Cl)cc1F	–	young Japanese subjects, plasma	oral, 20 mg single dose, day 1	–	AUC(0-inf) range	1.33 to 3.31 µg·h/mL
COc1ccc(/C=C\c2cc(OC)c(OC)c(OC)c2)cc1OP(=O)(O)O	–	Sprague-Dawley rat, plasma	intravenous, 28 mg/kg	–	AUC(0-τ)	12.5 ± 1.54 µg·h/mL
